Measured values collected from several papers.
Each line is one published result; not all experiments were run side by side. Several values in a cell are separate wells, animals, samples, runs or records. Numbers after ± are the reported error.

CC(C)NCC(SS(=O)(=O)O)c1ccccc1 (stereo not drawn)
body weight (Schistosoma mansoni; perfusion day 62; infected Swiss Webster mice; 100 mg/kg): 32.5 g and 32 g and 34.6 g

COC(=O)Nc1nc2cc(C(O)c3ccc(F)cc3)ccc2[nH]1 (stereo not drawn)
revertants (Salmonella typhimurium; Ames preincubation test; TA98; 109.4 µg/plate, without S9): 29.3 revertants/plate

CCCCCC[C@@H](CSS(=O)(=O)O)NCCC
body weight (Schistosoma mansoni; perfusion day 57; infected Swiss Webster mice; 100 mg/kg): 33.7 g and 32 g and 33 g

O=C1NC2(CC2)COc2ncc(F)cc2[C@H]2COCCN2c2ccn3ncc1c3n2
revertant colonies (Salmonella typhimurium; Ames test; TA100; 1500 µg/plate, 48 h, with: without S9): 81 ± 8 revertants/plate

CCCCNC(CCCC)CSS(=O)(=O)O (stereo not drawn)
body weight (Schistosoma mansoni; perfusion day 35; infected Swiss Webster mice; 100 mg/kg): 28.7 g and 27.9 g and 27.6 g

CCN(CC)CC#CCNc1ccnc2cc(Cl)ccc12
revertants (Salmonella typhimurium; mini-Ames test; TA1535; 125.0 µg/well, without S9): 2 revertants/well and 0 revertants/well

O=C1C2CC3CC1CC(C(=O)N1CCN(c4ccc([N+](=O)[O-])c5ncccc45)CC1)(C3)C2
revertant fold increase (Salmonella typhimurium; Ames test; TA100; 0.31 µg/well, without S9; relative to: vehicle): 0.7

Nc1nc2cc(C(=O)c3ccc(F)cc3)ccc2[nH]1
revertants (Salmonella typhimurium; Ames preincubation test; TA100; 156.0 µg per plate, 3 days, without S9, lawn reduction): 97 revertants per plate

CC(C)OCCOCc1ccc(OCC(O)CN(N=O)C(C)C)cc1 (stereo not drawn)
revertant fold increase (Escherichia coli; Ames test; WP2 uvrA; 5000 µg/plate, 30 % rat S9; relative to: solvent control): 0.8 fold

Some of these lines once more:
CC(C)NCC(SS(=O)(=O)O)c1ccccc1 (stereo not drawn)
body weight (Schistosoma mansoni; perfusion day 62; infected Swiss Webster mice; 100 mg/kg): 32.5 g and 32 g and 34.6 g
